Measurements from different studies.
Protocols differ between the studies behind these lines. Values joined by “and” are separate records of one study, mostly repeats; a detail may differ. Numbers after ± are the reported error.
WD repeat-containing protein 91 WD40 domain, residues 392–747: WD repeat-containing protein 91, WD40 domain, residues 392–747 (Homo sapiens, UniProt A4D1P6)
Chain of UniProt A4D1P6 (whole entry, looked up): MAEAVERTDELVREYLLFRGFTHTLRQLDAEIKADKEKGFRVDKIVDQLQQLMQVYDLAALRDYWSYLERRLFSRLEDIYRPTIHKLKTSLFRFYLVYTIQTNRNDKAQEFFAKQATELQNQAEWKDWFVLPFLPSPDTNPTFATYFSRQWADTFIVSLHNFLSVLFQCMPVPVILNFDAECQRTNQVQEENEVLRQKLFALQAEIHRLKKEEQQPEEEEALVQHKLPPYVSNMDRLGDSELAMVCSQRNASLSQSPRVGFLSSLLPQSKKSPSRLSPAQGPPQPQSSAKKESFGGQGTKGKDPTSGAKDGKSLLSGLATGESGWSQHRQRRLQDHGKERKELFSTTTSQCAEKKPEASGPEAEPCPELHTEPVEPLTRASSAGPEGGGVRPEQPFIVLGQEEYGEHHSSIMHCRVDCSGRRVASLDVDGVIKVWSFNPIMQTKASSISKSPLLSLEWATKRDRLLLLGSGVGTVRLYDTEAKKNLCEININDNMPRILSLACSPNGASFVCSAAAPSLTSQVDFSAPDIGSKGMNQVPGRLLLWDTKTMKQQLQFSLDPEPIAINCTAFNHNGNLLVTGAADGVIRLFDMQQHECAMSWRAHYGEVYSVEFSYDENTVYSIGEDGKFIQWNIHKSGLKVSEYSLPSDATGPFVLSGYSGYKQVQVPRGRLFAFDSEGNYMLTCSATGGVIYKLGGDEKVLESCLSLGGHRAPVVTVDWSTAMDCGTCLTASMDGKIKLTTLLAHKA
ESR1: Estrogen receptor (ESR1, Homo sapiens, UniProt P03372)
Chain of UniProt P03372 (whole entry, looked up): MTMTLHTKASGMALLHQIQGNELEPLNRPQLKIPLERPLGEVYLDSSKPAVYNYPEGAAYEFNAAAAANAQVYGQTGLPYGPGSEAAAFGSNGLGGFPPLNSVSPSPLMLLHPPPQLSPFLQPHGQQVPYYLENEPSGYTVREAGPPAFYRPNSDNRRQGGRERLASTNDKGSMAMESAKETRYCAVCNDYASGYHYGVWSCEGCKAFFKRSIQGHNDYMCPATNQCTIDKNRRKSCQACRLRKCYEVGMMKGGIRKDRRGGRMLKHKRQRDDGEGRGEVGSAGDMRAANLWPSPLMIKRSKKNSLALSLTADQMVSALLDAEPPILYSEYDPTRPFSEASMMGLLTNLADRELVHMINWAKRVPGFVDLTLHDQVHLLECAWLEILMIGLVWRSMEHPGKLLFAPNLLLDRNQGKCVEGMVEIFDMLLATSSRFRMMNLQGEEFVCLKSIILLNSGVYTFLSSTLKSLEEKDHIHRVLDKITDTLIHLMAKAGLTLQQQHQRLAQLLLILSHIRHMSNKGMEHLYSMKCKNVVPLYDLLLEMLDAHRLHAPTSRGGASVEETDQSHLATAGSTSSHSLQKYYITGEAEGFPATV
Genome polyprotein NS3 helicase domain: Genome polyprotein, NS3 helicase domain (Hepatitis C virus genotype 1b, UniProt Q9WMX2)
SPRY domain-containing SOCS box protein 2 SPRY domain: SPRY domain-containing SOCS box protein 2, SPRY domain (Homo sapiens, UniProt Q99619)
Chain of UniProt P19801 (whole entry, looked up): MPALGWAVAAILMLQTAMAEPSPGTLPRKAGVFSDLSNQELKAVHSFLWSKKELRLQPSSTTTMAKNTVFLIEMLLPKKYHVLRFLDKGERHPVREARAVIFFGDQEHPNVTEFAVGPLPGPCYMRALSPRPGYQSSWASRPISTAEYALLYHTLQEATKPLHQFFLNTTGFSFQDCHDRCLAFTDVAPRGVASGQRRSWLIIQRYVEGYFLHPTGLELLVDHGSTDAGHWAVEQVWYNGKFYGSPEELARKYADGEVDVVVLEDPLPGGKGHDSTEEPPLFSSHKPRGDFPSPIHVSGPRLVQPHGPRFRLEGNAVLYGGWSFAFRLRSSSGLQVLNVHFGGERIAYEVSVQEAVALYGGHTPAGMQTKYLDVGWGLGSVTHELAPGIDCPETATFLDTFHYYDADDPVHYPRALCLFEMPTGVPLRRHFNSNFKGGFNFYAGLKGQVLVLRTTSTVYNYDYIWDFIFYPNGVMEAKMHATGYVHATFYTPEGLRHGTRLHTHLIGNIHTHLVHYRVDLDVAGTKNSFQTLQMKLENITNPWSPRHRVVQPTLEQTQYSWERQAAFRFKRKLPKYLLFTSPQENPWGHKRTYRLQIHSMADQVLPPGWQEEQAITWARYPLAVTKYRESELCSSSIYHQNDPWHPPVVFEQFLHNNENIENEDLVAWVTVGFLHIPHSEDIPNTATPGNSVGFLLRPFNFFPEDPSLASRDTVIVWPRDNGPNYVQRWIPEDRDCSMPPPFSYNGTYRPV
Chain of UniProt Q64663 (whole entry, unmodified, looked up): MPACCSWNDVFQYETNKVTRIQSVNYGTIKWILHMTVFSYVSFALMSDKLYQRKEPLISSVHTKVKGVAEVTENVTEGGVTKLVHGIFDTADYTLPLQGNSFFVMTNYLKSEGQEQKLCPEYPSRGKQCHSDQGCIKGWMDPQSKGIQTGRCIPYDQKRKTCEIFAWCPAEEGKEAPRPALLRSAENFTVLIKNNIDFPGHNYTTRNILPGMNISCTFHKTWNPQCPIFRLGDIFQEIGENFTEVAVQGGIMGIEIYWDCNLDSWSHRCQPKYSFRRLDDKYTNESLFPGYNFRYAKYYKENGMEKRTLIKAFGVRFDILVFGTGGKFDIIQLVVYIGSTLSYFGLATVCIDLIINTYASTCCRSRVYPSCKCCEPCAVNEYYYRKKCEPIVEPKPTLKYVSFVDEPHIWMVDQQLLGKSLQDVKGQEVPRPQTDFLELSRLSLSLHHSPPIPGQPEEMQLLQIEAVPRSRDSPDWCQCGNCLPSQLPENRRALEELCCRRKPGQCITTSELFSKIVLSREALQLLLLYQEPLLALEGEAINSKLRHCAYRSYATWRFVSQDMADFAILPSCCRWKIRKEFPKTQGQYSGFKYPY
Chain of UniProt P31947 (whole entry, looked up): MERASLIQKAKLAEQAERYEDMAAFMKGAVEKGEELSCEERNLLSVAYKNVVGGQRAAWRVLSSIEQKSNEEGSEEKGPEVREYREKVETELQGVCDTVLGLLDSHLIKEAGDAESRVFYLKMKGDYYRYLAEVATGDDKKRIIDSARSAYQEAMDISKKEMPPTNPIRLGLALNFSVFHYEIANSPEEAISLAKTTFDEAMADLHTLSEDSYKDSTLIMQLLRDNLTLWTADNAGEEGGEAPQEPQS
Chain of UniProt Q99619 (whole entry, looked up): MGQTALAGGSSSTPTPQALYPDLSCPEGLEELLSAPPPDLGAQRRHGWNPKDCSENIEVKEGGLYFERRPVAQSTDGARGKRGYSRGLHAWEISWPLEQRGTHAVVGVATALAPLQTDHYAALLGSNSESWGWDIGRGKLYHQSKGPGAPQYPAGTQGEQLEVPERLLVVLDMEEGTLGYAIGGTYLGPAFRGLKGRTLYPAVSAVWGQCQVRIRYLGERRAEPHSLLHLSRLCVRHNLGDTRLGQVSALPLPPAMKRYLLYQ
Chain of UniProt Q62351 (whole entry, looked up): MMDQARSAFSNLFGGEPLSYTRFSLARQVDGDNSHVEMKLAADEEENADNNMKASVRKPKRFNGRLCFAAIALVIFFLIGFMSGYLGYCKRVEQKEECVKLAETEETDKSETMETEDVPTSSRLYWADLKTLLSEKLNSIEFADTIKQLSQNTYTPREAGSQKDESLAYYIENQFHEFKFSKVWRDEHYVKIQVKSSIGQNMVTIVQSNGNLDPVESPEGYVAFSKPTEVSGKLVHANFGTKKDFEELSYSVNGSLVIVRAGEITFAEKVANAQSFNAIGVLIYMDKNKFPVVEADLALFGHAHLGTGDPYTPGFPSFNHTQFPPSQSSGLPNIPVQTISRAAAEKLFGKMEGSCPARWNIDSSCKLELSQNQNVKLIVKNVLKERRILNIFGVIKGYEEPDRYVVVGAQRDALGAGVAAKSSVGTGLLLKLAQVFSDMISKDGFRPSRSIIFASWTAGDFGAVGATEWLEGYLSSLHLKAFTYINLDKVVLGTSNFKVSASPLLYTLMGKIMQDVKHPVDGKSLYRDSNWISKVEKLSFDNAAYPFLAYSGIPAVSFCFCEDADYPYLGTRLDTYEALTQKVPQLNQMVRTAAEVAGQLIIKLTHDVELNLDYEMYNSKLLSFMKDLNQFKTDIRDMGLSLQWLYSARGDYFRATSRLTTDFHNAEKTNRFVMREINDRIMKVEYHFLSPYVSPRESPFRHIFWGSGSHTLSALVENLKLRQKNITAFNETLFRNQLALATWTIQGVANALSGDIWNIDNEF
Chain of UniProt P35462 (whole entry, looked up): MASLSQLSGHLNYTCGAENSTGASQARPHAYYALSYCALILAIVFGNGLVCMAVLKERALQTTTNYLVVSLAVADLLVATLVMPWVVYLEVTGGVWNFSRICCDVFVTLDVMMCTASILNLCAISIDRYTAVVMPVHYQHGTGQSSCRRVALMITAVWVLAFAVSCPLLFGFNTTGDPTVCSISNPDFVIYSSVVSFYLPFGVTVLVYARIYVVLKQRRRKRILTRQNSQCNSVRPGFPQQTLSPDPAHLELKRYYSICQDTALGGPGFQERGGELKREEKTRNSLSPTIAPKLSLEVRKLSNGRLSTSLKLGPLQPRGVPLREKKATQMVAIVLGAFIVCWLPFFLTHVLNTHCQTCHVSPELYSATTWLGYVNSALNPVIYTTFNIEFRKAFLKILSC
Chain of UniProt Q92570 (whole entry, looked up): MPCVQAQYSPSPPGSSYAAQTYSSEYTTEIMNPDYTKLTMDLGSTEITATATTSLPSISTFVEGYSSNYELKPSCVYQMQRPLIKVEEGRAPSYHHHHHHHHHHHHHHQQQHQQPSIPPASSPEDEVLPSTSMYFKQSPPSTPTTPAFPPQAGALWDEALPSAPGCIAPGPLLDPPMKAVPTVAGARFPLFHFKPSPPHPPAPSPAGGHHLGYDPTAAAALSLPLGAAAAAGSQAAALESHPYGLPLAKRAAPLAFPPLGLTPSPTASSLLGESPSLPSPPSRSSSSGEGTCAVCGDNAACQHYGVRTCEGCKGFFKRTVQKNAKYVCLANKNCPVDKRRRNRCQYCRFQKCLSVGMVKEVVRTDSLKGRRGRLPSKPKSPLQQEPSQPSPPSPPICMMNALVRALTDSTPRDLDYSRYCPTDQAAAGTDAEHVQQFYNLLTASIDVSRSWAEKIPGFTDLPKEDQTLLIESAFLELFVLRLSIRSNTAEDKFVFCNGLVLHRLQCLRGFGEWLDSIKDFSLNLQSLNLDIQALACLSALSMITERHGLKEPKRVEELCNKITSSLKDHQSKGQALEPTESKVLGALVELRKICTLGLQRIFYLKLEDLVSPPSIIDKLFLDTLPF

SMILES | target | assay | system | conditions | scale | measurement | value
Oc1ccc(/C=C/c2cc(O)cc(O)c2)cc1 | O-methyltransferase (Sorghum bicolor, UniProt A0A1B6PFV1) | biolayer interferometry | – | added: saturating SAH | – | cooperativity factor σ | 12
CC[C@H](C)[C@H](NC(=O)[C@H](CCCCN)NC(=O)CNC(=O)[C@@H](NC(=O)[C@@H](NC(=O)[C@H](CCSC)NC(=O)[C@H](Cc1c[nH]cn1)NC(=O)CN)[C@@H](C)O)C(C)C)C(=O)N[C@@H](Cc1ccc(O)cc1)C(=O)N[C@@H](C)C(=O)N[C@@H](C)C(=O)N[C@@H](CCSC)C(=O)N[C@@H](CCSC)C(=O)N[C@@H](C)C(=O)N[C@@H](CCSC)C(=O)N[C@@H](CCC(=O)O)C(=O)N[C@@H](Cc1ccc(O)cc1)C(=O)N[C@@H](Cc1ccc(O)cc1)C(=O)N[C@@H](CCCNC(=N)N)C(=O)N[C@@H](CCC(N)=O)C(=O)N[C@@H](CO)C(=O)N[C@@H](CCCCN)C(=O)N[C@@H](C)C(=O)N[C@@H](CCCCN)C(=O)N[C@@H](CCCCN)C(=O)N[C@@H](CC(C)C)C(=O)N[C@@H](CCC(N)=O)C(=O)N[C@@H](C)C(=O)N[C@@H](CCSC)C(=O)N[C@@H](CCCNC(=N)N)C(=O)O | Calmodulin-1, Ca2+-bound N-lobe (CALM1, Homo sapiens, UniProt P0DP23) | binding, isothermal titration calorimetry | – | N-lobe, CaV2.1 IQ domain, unit not given, added: Ca2+ | baseline: wild-type IQ domain | ΔΔG | 0.55
N#CC1CCN(C(=O)c2ccc(CNS(=O)(=O)c3ccccc3)cc2)CC1 | WD repeat-containing protein 91 WD40 domain, residues 392–747 | SPR | – | 45 µM | – | binding | -2% and -21%
CC[C@H](C)[C@H](NC(=O)[C@H](CCCCN)NC(=O)CNC(=O)[C@@H](NC(=O)[C@@H](NC(=O)[C@H](CCSC)NC(=O)[C@H](Cc1c[nH]cn1)NC(=O)CN)[C@@H](C)O)C(C)C)C(=O)N[C@@H](Cc1ccc(O)cc1)C(=O)N[C@@H](C)C(=O)N[C@@H](C)C(=O)N[C@@H](CCSC)C(=O)N[C@@H](CCSC)C(=O)N[C@H](C(=O)N[C@@H](CCSC)C(=O)N[C@@H](CCC(=O)O)C(=O)N[C@@H](Cc1ccc(O)cc1)C(=O)N[C@@H](Cc1ccc(O)cc1)C(=O)N[C@@H](CCCNC(=N)N)C(=O)N[C@@H](CCC(N)=O)C(=O)N[C@@H](CO)C(=O)N[C@@H](CCCCN)C(=O)N[C@@H](C)C(=O)N[C@@H](CCCCN)C(=O)N[C@@H](CCCCN)C(=O)N[C@@H](CC(C)C)C(=O)N[C@@H](CCC(N)=O)C(=O)N[C@@H](C)C(=O)N[C@@H](CCSC)C(=O)N[C@@H](CCCNC(=N)N)C(=O)O)[C@@H](C)CC | Calmodulin-1, Ca2+-bound C-lobe (CALM1, Homo sapiens, UniProt P0DP23) | binding, isothermal titration calorimetry | – | pH 7.4, 15 °C, C-lobe, CaV2.1 IQ domain, added: Ca2+ | – | ΔS | 23.4 ± 1 cal/mol/K
NCc1ccccc1 | Diamine oxidase [copper-containing] (AOC1, Homo sapiens, UniProt P19801) | substrate turnover, DAO oxidation | – | concentration not given, unit not given | baseline: DMSO control | enzyme activity | 4.59 and 5.03 and 4.89 and 5.08 and 4.98 and 4.51 and 5.14 and 4.6
COc1c(-c2ccccc2)oc2cc(O)cc(O)c2c1=O | ESR1 | array formation | PRL-HeLa | – | baseline: EC50 ERβ over EC50 ERα | selectivity ratio | 0.77
COc1cc(Nc2ncc3c(n2)-c2ccc(Cl)cc2C(c2c(F)cccc2OC)=NC3)ccc1C(=O)O | MAPKAPK3 | kinase activity | – | 1 µM | – | remaining activity | 6%
Nc1ncnc2c1ncn2[C@@H]1O[C@H](COP(=O)(O)OP(=O)(O)OP(=O)(O)O)[C@@H](O)[C@H]1O | P2X purinoceptor 7 (P2rx7, Rattus norvegicus, UniProt Q64663, I214A/Q143A/R125A) | ion current, agonist, two-electrode voltage clamp | Xenopus oocytes | 33.3 µM | – | normalized current | 0.0182 and 0.0162 and 0.0234
COc1cc(/C=C/C(=O)C(=Cc2cccc(O)c2)C(=O)/C=C/c2ccc(O)c(OC)c2)ccc1O | haemin | binding, isothermal titration calorimetry | – | pH 7.4, 37 °C | – | ΔH | -23.4 ± 0.313 kcal/mol
N#CC1CCN(C(=O)c2ccc(SCc3nc4ccccc4[nH]3)cc2)CC1 | WD repeat-containing protein 91 WD40 domain, residues 392–747 | binding, SPR single-concentration screen | – | 45 µM | – | SPR response | -2.7 RU and 0 RU
CC[C@@H](C)[C@@H](NC(=O)[C@@H](Cc1ccc(O)cc1)NC(=O)[C@H]1CCCN1C(=O)[C@@H](CCCNC(=N)N)NC(=O)[C@H](N)Cc1c[nH]cn1)C(=O)N[C@H](C)C(=O)N[C@H](Cc1c[nH]cn1)C(=O)N[C@H](CCCNC(=N)N)C(=O)N[C@@H](C(=O)N[C@H](Cc1ccc(O)cc1)C(=O)N[C@H](CO)C(=O)N[C@H](Cc1ccccc1)C(N)=O)C(C)C | Transferrin receptor protein 1 (Tfrc, Mus musculus, UniProt Q62351) | flow cytometry | DC2.4 | 2 h, pH 6, replicate 1, unit not given | baseline: 0 h | surface TFRC expression | 0.996
Cc1[nH]c(C)c(S(=O)(=O)Nc2ccc(C(F)(F)F)c(Cl)c2)c1C(=O)N1CCC(F)(F)C1 | D(3) dopamine receptor (DRD3, Homo sapiens, UniProt P35462) | saturation binding | – | 100 µM, added: [3H]dopamine | – | Bmax | 1900 ± 230 fmol/mg
Cc1nc(CSc2nc(SCc3ccc(C(C)C)cc3)nc(=O)[nH]2)cs1 | DNA topoisomerase 2-alpha (TOP2A, Homo sapiens, UniProt P11388) | DNA relaxation | – | 62.5 µM | – | mean relaxed DNA | 99.6%
CC(=O)NCCCC[C@H](NC(=O)CNC(=O)[C@H](CCCNC(=N)N)NC(C)=O)C(=O)Nc1ccc2c(C)cc(=O)oc2c1 | human K353L/Y782F mutant enzyme | substrate, fluorogenic | – | – | – | Km | 52 ± 6 µM
Nc1nc2c(ncn2[C@@H]2O[C@@H]3COP(=O)(O)O[C@H]4[C@@H](O)[C@H](n5cnc6c(=O)[nH]c(N)nc65)O[C@@H]4COP(=O)(O)O[C@H]3[C@H]2O)c(=O)[nH]1 | Cell cycle histidine kinase CckA, DHp-CA domains (Caulobacter vibrioides, UniProt Q9X688) | ITC | – | added: AMPPNP 5 mM | – | ΔS | 24.1 cal/mol/K
C=CC(=O)N1CCC(COCC(=O)N2CCN(c3nc(-c4cnc(N)nc4C(F)F)nc(N4CCOC[C@@H]4C)n3)CC2)CC1 | Fibroblast growth factor receptor 2 (FGFR2, Homo sapiens, UniProt P21802) | KINOMEscan | – | 1 µM | – | remaining binding | 100%

SMILES | target | assay | system | conditions | scale | measurement | value
Nc1ccc(S(=O)(=O)Nc2ccnn2-c2ccccc2)cc1 | Genome polyprotein NS3 helicase domain | DNA binding, inhibitor | hepatitis C virus | 100 µM, added: Cy5-dT15 DNA | – | inhibition | 1%
CC(C)=CCc1c(O)ccc(C(=O)/C=C/c2ccc(O)cc2)c1O | ESR1 | array formation | PRL-HeLa | – | baseline: EC50 ERβ over EC50 ERα | selectivity ratio | 24
CCCCC[S+]([O-])c1n[nH]c(N)n1 (centres unmarked) | SPRY domain-containing SOCS box protein 2 SPRY domain | binding, affinity selection mass spectrometry | – | – | baseline: other proteins in batch | fold enrichment | 0.874
O=C1CC[C@H](N2Cc3c(ccc4c3OCC43CCN(C[C@@H]4CCC5(CCN(c6ccc([C@@H]7c8ccc(O)cc8CC[C@@H]7c7ccccc7)cc6)CC5)OC4)CC3)C2=O)C(=O)N1 | ESR1 | – | mouse, MCF7 xenograft | oral, 30 mg/kg daily for 3 days, 24 h | baseline: vehicle | ER level reduction | 71 to 72%
N[C@@H](CO)C(=O)O | N-alpha-acetyltransferase 80 (NAA80, Homo sapiens, UniProt Q93015) | substrate, DTNB | – | 2 mM, 30 min, 37 °C, added: acetyl-CoA 500 µM | – | product formation | 3.24 µM
C[C@@H](c1ccc(-n2cnc3c(N)ncnc32)cc1)N1CCc2nn(C)c(Cc3ccccc3)c2C1=O | Serine/threonine-protein kinase WNK1 (WNK1, Homo sapiens, UniProt Q9H4A3) | KINOMEscan | – | 0.1 µM | baseline: DMSO control | remaining binding | 72%
O=C(COP(=O)(O)O)[C@@H](O)[C@H](O)[C@H](O)COP(=O)(O)O | 14-3-3 protein sigma (SFN, Homo sapiens, UniProt P31947) | thermal proteome profiling | HepG2 cell lysate | concentration not given, 57 over 37 °C, mean | baseline: compound over control | thermal stability ratio | 0.533
CCn1c(=O)[nH]c2cc(C(=O)NC(c3ccc(F)cc3)c3cnn(C)c3)ccc2c1=O (centres unmarked) | WD repeat-containing protein 91 (Homo sapiens, UniProt A4D1P6) | binding, SPR steady state | – | 0.2344 µM | – | SPR response | 2.77 RU
NC(=O)c1ccccc1 | Genome polyprotein NS3 helicase domain | DNA binding, inhibitor | hepatitis C virus | 100 µM, added: Cy5-dT15 DNA | – | inhibition | 0%
CC1(C)CC2(C)OC(=O)NC2(C)c2ccccc21 (centres unmarked) | SPRY domain-containing SOCS box protein 2 SPRY domain | binding, affinity selection mass spectrometry | – | – | baseline: other proteins in batch | log fold enrichment | 0.0412
Nc1ncnc2c1ncn2[C@@H]1O[C@H](COP(=O)(O)OP(=O)(O)O)[C@@H](O)[C@H]1O | Creatine kinase U-type, mitochondrial (CKMT1A, Homo sapiens, UniProt P12532, H99A) | substrate, Kinase-Glo luminescence | – | pH 7.0, reverse reaction, H61A mutant, added: second substrate in excess | – | Km | 33 ± 1 µM
Cc1ccc(C(=O)Nc2ccc(S(=O)(=O)O)c3cc(S(=O)(=O)O)cc(S(=O)(=O)O)c23)cc1NC(=O)c1cccc(NC(=O)Nc2cccc(C(=O)Nc3cc(C(=O)Nc4ccc(S(=O)(=O)O)c5cc(S(=O)(=O)O)cc(S(=O)(=O)O)c45)ccc3C)c2)c1 | Genome polyprotein NS3 helicase domain | DNA binding, inhibitor | hepatitis C virus | 100 µM, added: Cy5-dT15 DNA | – | inhibition | 96%
COCCOCc1ccc(-c2cc3onc(-c4ccccc4)c3c(=O)n2C)cc1 | Nuclear receptor subfamily 4 group A member 3, ligand-binding domain (Homo sapiens, UniProt Q92570) | reporter gene, Gal4 hybrid reporter | – | 1 µM | baseline: vehicle | activation | 1.19 ± 0.25 fold
C=CC(=O)N1CCN(c2ccc(C)o2)C(=O)C1 | 14-3-3 protein sigma, with ERα phosphopeptide (SFN, Homo sapiens, UniProt P31947) | binding, fluorescence polarization | – | covalent ligand screen, added: phosphorylated ERalpha peptide | baseline: control | FP signal | 91%
O=C1c2ccccc2C(=O)c2c(NCCc3ccc(O)cc3)ccc(NCCc3ccc(O)cc3)c21 | Genome polyprotein NS3 helicase domain | DNA binding, inhibitor | hepatitis C virus | 100 µM, added: Cy5-dT15 DNA | – | inhibition | 13%
Cc1nc2sccn2c(=O)c1CCN1CCC(=C(c2ccc(F)cc2)c2ccc(F)cc2)CC1 | Diacylglycerol kinase alpha (Rattus norvegicus, UniProt P51556) | kinase activity, inhibitor | HEK293T cell lysate | added: diacylglycerol liposomes | – | IC90 | 123 µM

Repeated from above:
SMILES | target | assay | system | conditions | scale | measurement | value
Cc1ccc(C(=O)Nc2ccc(S(=O)(=O)O)c3cc(S(=O)(=O)O)cc(S(=O)(=O)O)c23)cc1NC(=O)c1cccc(NC(=O)Nc2cccc(C(=O)Nc3cc(C(=O)Nc4ccc(S(=O)(=O)O)c5cc(S(=O)(=O)O)cc(S(=O)(=O)O)c45)ccc3C)c2)c1 | Genome polyprotein NS3 helicase domain | DNA binding, inhibitor | hepatitis C virus | 100 µM, added: Cy5-dT15 DNA | – | inhibition | 96%
COCCOCc1ccc(-c2cc3onc(-c4ccccc4)c3c(=O)n2C)cc1 | Nuclear receptor subfamily 4 group A member 3, ligand-binding domain (Homo sapiens, UniProt Q92570) | reporter gene, Gal4 hybrid reporter | – | 1 µM | baseline: vehicle | activation | 1.19 ± 0.25 fold
C=CC(=O)N1CCN(c2ccc(C)o2)C(=O)C1 | 14-3-3 protein sigma, with ERα phosphopeptide (SFN, Homo sapiens, UniProt P31947) | binding, fluorescence polarization | – | covalent ligand screen, added: phosphorylated ERalpha peptide | baseline: control | FP signal | 91%
O=C1c2ccccc2C(=O)c2c(NCCc3ccc(O)cc3)ccc(NCCc3ccc(O)cc3)c21 | Genome polyprotein NS3 helicase domain | DNA binding, inhibitor | hepatitis C virus | 100 µM, added: Cy5-dT15 DNA | – | inhibition | 13%
Cc1nc2sccn2c(=O)c1CCN1CCC(=C(c2ccc(F)cc2)c2ccc(F)cc2)CC1 | Diacylglycerol kinase alpha (Rattus norvegicus, UniProt P51556) | kinase activity, inhibitor | HEK293T cell lysate | added: diacylglycerol liposomes | – | IC90 | 123 µM
